Published values collected from several papers.
Each line is one published result; not all experiments were run side by side. Values joined by “and” are separate records of one study, mostly repeats; a detail may differ.
Target: Interleukin-1 receptor-associated kinase 1 (IRAK1, Homo sapiens, UniProt P51617)
Sequence of UniProt P51617 (whole entry, looked up): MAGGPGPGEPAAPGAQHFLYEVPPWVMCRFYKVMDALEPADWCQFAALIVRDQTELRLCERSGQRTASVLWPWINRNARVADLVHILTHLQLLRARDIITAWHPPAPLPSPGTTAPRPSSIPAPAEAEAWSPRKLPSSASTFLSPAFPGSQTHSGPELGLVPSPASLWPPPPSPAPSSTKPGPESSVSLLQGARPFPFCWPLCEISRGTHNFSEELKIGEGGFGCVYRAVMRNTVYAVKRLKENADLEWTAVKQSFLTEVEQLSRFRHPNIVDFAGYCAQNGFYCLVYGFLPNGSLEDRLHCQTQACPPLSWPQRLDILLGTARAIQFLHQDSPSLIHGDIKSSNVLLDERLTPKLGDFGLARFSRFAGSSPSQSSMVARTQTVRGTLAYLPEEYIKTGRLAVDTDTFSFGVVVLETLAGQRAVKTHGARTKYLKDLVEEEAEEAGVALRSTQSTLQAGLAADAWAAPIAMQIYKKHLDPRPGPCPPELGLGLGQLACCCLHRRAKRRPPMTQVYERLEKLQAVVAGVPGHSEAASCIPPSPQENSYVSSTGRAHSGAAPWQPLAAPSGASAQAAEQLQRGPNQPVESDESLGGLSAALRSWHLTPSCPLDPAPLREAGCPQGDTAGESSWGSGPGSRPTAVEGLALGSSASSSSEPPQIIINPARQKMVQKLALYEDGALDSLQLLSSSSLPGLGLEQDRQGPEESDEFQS

O=C(Nc1cc(-c2ccnc3[nH]ccc23)c(Cl)cn1)[C@H]1CCC[C@@H](NC(=O)C(F)(F)F)C1  remaining binding (binding, competition with immobilised ligand; 0.1 µM): 34%
COc1cc(Nc2nccc(-c3cnn4nc(OC)ccc34)n2)cc(C(F)(F)F)c1  remaining binding (binding, competition with immobilised ligand; 1 µM): 61%
COc1c(OCCCN2CCOCC2)ccc2c1N=C(NC(=O)c1cnc(N)nc1)N1CCN=C21  remaining activity (kinase activity, inhibitor; 1 µM; reference: untreated control): 96%
Cc1cnc2nc1Nc1cccc(c1)COC/C=C/COCc1cc(ccc1OCCN1CCOCC1)N2  remaining binding (binding; 0.1 µM): 39%
Cc1ccc(-c2c(/C=C(\C#N)C(=O)NC(C)C)n(CCCO)c3ncnc(N)c23)cc1  remaining binding (cell-free assay, competition with immobilised ligand; 1 µM): 98%
C=CC(=O)N1CCCC(n2c(=O)c3ncccc3n(Cc3ccc(Oc4ccccc4)cc3)c2=O)C1 (stereo not drawn)  remaining binding (cell-free assay, competition with immobilised ligand; 1 µM): 77%
C=C1C[C@]2(C(=O)OC)C=C(C(=O)Nc3cccc(C(=O)Nc4ccc(Nc5nccc(-c6cccnc6)n5)c(C)c4)c3)C(=O)[C@H]1C2  remaining binding (binding, competition with immobilised ligand; 1 µM): 86%
CNC(=O)C[C@H](Cc1ccc(C#N)cc1)NC(=O)c1cc(-c2ccc(CN[C@H](C)c3ccc(C)cc3)o2)ccc1Cl  activity vs control (enzyme activity, inhibitor; 1 µM): 97%
Nc1ncc2c(n1)-c1c([nH]c3ccc(C4=CCOCC4)cc13)CCC2  remaining binding (binding, competition with immobilised ligand; 1 µM): 90%
COCC12C(=O)NC3C4(C(OC)CC1O)C1CC5(O)C(OC)C(O)C(OC(C)=O)(C1C5OC(=O)c1ccccc1)C3(O)C(OC)C24 (stereo not drawn)  remaining activity (kinase activity, inhibitor, ProQinase kinase profiling; 25 µM; reference: control): 88% and 86%
NC(=O)[C@@H](O)C[C@H]1CCc2sc3ncnc(O[C@H]4CC[C@H](N5CCOCC5)CC4)c3c21  inhibition (enzyme activity, inhibitor; 10 µM): 83%
C=CC(=O)Nc1cccc(-c2cnc3[nH]cc(C(=O)NC(C)(C)C)c3n2)c1  inhibition (kinase activity; 0.1 µM): 3% and -8%
Cc1cccc(O[C@H]2CCC[C@@H](C(C)CNCc3ccncc3)C2)c1 (relative stereo)  inhibition (enzyme activity, inhibitor; 10 µM): -10%
CCN1CCN(Cc2ccc(C(=O)Nc3ccc(C)c(NCc4cnc5[nH]ccc5c4OC)c3)cc2C(F)(F)F)CC1  remaining binding (binding, competition with immobilised ligand; 1 µM): 100%
CC(C)=CC1OC(C)(C)C2C=C3C(=O)C(Cl)=CC(O)C3C3C(O)C4OC4C(=O)C132 (stereo not drawn)  remaining binding (cell-free assay, competition with immobilised ligand; 10 µM): 72%
Nc1ncc(-c2cc(-c3cnn(CC(F)(F)F)c3)ncc2F)nc1C(=O)NC1CNCC(F)C1 (stereo not drawn)  remaining activity (enzyme activity; 1 µM; reference: DMSO control): 99.6%
COC(=O)[C@@]1(C)C=C(C(=O)Nc2cccc(C(=O)Nc3ccc(Nc4nccc(-c5cccnc5)n4)c(C)c3)c2)C(=O)CC1  remaining activity (enzyme activity, inhibitor, radiometric; 1 µM): 85%
CNC1C[S+]2CC[S+]3CC[S+](C1)[Ru-4]321([N]=C=S)[n]2c3ccc(OC)cc3c3c4c(c5cc(F)c[n+]1c5c32)C(=O)NC4=O (stereo not drawn)  remaining binding (KinomeScan; 0.1 µM; reference: untreated): 87%

Some of these lines once more:
NC(=O)[C@@H](O)C[C@H]1CCc2sc3ncnc(O[C@H]4CC[C@H](N5CCOCC5)CC4)c3c21  inhibition (enzyme activity, inhibitor; 10 µM): 83%
